Results of several laboratories.
Protocols differ between the studies behind these lines. ± gives the spread as reported.

For `Cc1c(C(=O)Nc2ccn(C)n2)ncn1Cc1cccc(C(F)(F)F)c1`, the brain concentration was 59.3 ± 6 ng/g (C57BL/6 mouse, non-transgenic, brain; drinking water, 15 mg/kg daily, 10 days).
For `N#CCc1cccc(Cl)c1-c1ccc2[nH][11c](=O)[nH]c2c1`, the brain uptake was 0.71 ± 0.08 %ID/g (mouse; 30 min; relative to: no inhibitor).
Under “brain tissue binding”, `Cc1ccc(NC(=O)N2CCCN3CCC(c4ccc(C#CC5CCCC5O)cc4)C3C2)cc1` (stereo not shown) is recorded as 99.1% (CD-1 mouse, brain homogenate; dose not given).
The brain concentration of `CCOP(=O)(CC(=O)Nc1ccc(S(=O)(=O)N(CC(N)=O)c2ccc(N(CC(N)=O)S(=O)(=O)c3ccc(OC)cc3)c3ccccc23)cc1)OCC` is reported as 1.58 ± 0.276 ng/mL (male mouse, Aβ1-42-injected AD model, brain; oral, 40 mg/kg, 6 h).
For `Cn1cnc(C(=O)N(Cc2ccc(F)c(OC3CCCC3)c2)C2CC3CN([11CH3])CC3C2)c1` (stereo not shown), the brain uptake was 0.15 % injected dose/g (male ddY mouse, brain; iv, 1 min).
`NS(=O)(=O)NCC(F)(F)c1ccccc1F`: “brain to plasma ratio” 2.8 (mouse; oral, 5 mg/kg, AUC based).
For `[11CH3]N1CCCC[C@H]1[C@@H](NC(=O)c1nccc(C(F)(F)F)c1Cl)c1ccsc1`, the brain uptake was 1.11 % injected dose/g (male ddY mouse, brain; iv, 5 min).
The brain concentration of `CCC1CC2C(C)=CC3C(=O)CCCC3C=CC(C)=CC2C(=O)O1` (stereo not shown) is reported as 8.9 ± 3.6 ng/g (ICR mouse (male), brain; intravenous, 2 mg/kg, 60 min).
`N#Cc1cc(C(=O)OCC[18F])c(C(F)(F)F)nc1N1CCC(C(=O)NS(=O)(=O)c2ccc(Cl)s2)CC1` has a brain SUVmean of 0.12 ± 0.08 (dynamic PET; healthy C57BL/6 mouse; intravenous, 11.1 MBq).
The brain concentration of `Cc1cc2c(c(=O)o1)C=C1CCC(C(C)CNCc3ccc(O)cc3)CC1O2` (stereo not shown) is reported as 48.8 µM (HPLC-MS; mouse; iv, 25 mg/kg, 5 min).
`O=C1CCc2ccc(NS(=O)(=O)c3cccc(Oc4ccccc4)c3)cc2N1`: “brain AUC(0-6 h) ratio” 87% (C57BL/6J mouse, brain; 3 mg/kg; relative to: oral over subcutaneous).
`C[C@H](CN(C)Cc1ccccc1)NC(=O)c1ccc(-c2noc(C(F)(F)[18F])n2)cc1` gave a brain uptake of 3.74 ± 0.21 %ID/cc (microPET; mouse; 10 min after injection).
`O=S(=O)(N[C@H]1CCC[C@@H](N2c3ccccc3CCc3ccccc32)[C@@H]1O)c1ccc(OC(F)(F)F)cc1` gave a brain exposure of roughly 8 µM (mouse, brain; oral, 100 mg/kg twice daily).

Repeated from above:
The brain concentration of `CCC1CC2C(C)=CC3C(=O)CCCC3C=CC(C)=CC2C(=O)O1` (stereo not shown) is reported as 8.9 ± 3.6 ng/g (ICR mouse (male), brain; intravenous, 2 mg/kg, 60 min).
